Published values of several laboratories.
Each numbered part is a random draw from the data of one study; scales do not carry over between parts. “And” joins repeats or separate records; there may be more than shown. Positions count from the first letter of the parent shown.

Block 1 — method: RNA Bind-n-Seq; molecule type: RNA; sample: in vitro; tested at: not given; relative to: input RNA pool; reading: higher = stronger binding; quantity: bound/input enrichment
Target: RING finger protein unkempt homolog, zinc fingers 1-6, GST-SBP tag (UNK, Homo sapiens, UniProt Q9C0B0, residues 30-357)
Notes: RNA with constant flanks, human and mouse sites, ends assumed
Target sequence (chain): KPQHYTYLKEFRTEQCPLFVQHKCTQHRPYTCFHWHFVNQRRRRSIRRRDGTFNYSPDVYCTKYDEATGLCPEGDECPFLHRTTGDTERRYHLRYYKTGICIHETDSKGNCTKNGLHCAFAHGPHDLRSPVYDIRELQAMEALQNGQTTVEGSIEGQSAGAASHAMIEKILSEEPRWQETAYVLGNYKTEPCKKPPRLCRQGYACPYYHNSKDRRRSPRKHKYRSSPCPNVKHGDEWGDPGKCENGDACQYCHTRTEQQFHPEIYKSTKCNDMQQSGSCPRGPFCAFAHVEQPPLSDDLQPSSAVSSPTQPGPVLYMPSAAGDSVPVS
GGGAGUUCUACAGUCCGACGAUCUGAGUUCUAUUAUUGAUUAAAGAAGACAGAUUUACAUUCAGGAUUCUGGUGUCUGGAGGCUUAGCCUCAAAGCCAGUUUUGAUGACUUAGAAGGCAAUCUAUGUCACUGUCCCCACAAAGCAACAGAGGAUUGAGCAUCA: 0.169 ratio
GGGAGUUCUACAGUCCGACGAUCCUUCAAUUUUUAAAAGGCAAAACAUUGUUCAAAGCUUAAAGUUUUGAGCUUGAAACAUAGUUUAGAUUUAAACAGUUGUAUGGGAACACAUCCUCUGCUUUAUACAGUUGGAAGUCCUCCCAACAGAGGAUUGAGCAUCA: 0.283 ratio
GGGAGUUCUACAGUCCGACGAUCUGACUGUUGCAGGGUGGGUGGUUUCCAAACGAGUCUAAGUUAUGAGUGCCCAGACUUCCCUAGCAGAGAAGGGCCUAAAUCCGGGGCUCAUGUGCCAGGAGAGUUAUGCAUGCAGUGGGACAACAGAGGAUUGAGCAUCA: 0.292 ratio
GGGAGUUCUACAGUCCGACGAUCACAGGAUCUGAGUGGACCCGGACAGUACUCAGUCUGAACUCCCGCUCUGAGGCGGAAUCCAUGCCCCCGCCCAGAACCAGUGCCUCUUCGGUGAGUUUGCUGUCUGUGCUGAGACAGCAGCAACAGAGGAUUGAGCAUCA: 0.0879 ratio
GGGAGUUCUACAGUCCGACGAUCGGCAGCCGUUUCUUGCCGGCCCUGGGAGUCUGCUAUGGCGUUCCCUCACCUACAACAGCCUAGUUUCCUUCUGGCUAGCCUGAAAGCUGACUCUAUAAAUAAGCCCUUUGCACAACGUUGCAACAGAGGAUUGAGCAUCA: 0.204 ratio
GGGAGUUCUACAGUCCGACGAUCAUUGCUUCCUGGUAGUGUGGAAGAAACACAAGACCCUCAUUCCCAUUUCCAUUUCCAUUGUAGUCAAAGGUAUUGGCUUAGGUUUCUCCCGUGCUCCUUUCAUCCCCUCCCUGCCUGAGCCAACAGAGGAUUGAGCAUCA: 0.83 ratio
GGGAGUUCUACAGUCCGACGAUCUUGAAAUCUCUACGAGAACUGAAUGUCAGAAGAAAUUACCUUAAAGUUUUACCACAAGAACUAGUAGAUCUUUCCUUGGUAAAGUUUGACUUUUCCUGCAACAAAGUGCUCGUGAUUCCACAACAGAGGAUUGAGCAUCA: 0.101 ratio
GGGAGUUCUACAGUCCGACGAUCCCUAAGGCAAAGAAUUCUCAGGAUUAUCAGGCCUUAACAGUACAUGACAACUUGGCUAUAAAAAUUUGCAAUGAGAUCUUAACAAGUCCAUGCUCACCAGAAAAUCGGGUUUAUACAAAACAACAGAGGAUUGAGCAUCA: 0.181 ratio
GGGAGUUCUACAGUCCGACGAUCCAAUCAGGUUUUUACUACAAAACCAGAAUACCAAAGUUUGGGAGAGAUUUCUCUUACCACUAUCCAUCCUGUGACUUGUACUUUGUUGGUGCAAGUUCUGAAGUUUAUAGGUUAAACUUACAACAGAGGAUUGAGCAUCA: 0.178 ratio
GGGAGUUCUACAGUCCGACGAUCUAGCAGCUAAUGAAGCCCAGCUUCUGAGGAAAAUUCAGUUGUUGUGCCUCAUGGAGAUGACUUUCACACGACCUGCCAAUCACAGACAACUCACUUUUGAAGAAAUUGCCAAAAGUGCUACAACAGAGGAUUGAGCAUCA: 0.091 ratio
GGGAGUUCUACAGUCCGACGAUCUCAAGGCUGACAGUGACACUAAUGAAACAUGAUAUCAGGAAAAAUGUAAUAAGCCAUCUGGUAAGUUUUCUUAAAGGAUGUUGUUAAGAAGUCCAUCUAAAAACAUGUCUAGACUUUUUUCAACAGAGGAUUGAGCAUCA: 0.491 ratio

Block 2 — target: CCNE2, cyclin fold, Cln2 fusion (human); method: yeast growth competition, sequencing; sample: yeast; notes: weak parent motif; relative to: not given; reading: higher = stronger binding; quantity: normalised enrichment score
Parent: MASTL docking peptide (human); PMIAKNLMCELDE
N6L: -0.00102
A4H: 0.0349
C9K: -0.131
L11H: 0.0808
L7Y: -0.0446
E10Q: 0.185
M2V: 0.0378
C9Q: 0.27
K5N: -0.016
L11V: -0.146
L7R: -0.257
L11S: 0.116
I3R: 0.01
K5D: -0.157
D12T: 0.015
M2S: 0.116
K5E: -0.222
M8H: -0.151
E10H: 0.23
D12F: 0.121
C9R: 0.182
I3N: 0.0802
D12R: 0.299
D12Q: 0.246
E10I: 0.3

Block 3 — method: aptamer microarray, sandwich; molecule type: DNA with 2'F-ANA; sample: in vitro; tested at: 200 nM; with: Cy3 exosite-II aptamer, 400 nM; reading: higher = stronger binding; quantity: mean fluorescence intensity; sequence: GGTTGGTGTGGTTGG
Target: Prothrombin, mature alpha-thrombin (F2, Homo sapiens, UniProt P00734)
Notes: whole 15-mer aptamer, many near background
2'F-ANA at 2 3 6 8 9 10 11: 308 a.u.
2'F-ANA at 1 2 4 7 9 10 11 12 14 15: 284 a.u.
2'F-ANA at 2 4 5 6 8 11 12 14: 62.5 a.u.
2'F-ANA at 1 4 5 6 8 12 15: 99.6 a.u.
2'F-ANA at 2 6 7 8 9 11 13 14 15: 113 a.u.
2'F-ANA at 1 4 5 6 7 8 9 12 13 15: 81.8 a.u.
2'F-ANA at 4 9 10 12 13 14: 59 a.u.
2'F-ANA at 1 2 4 5 6 10 12 13 14: 44.9 a.u.
2'F-ANA at 5 7 8 9 11 13: 61.7 a.u.
2'F-ANA at 1 3 4 5 6 7 9 11 14 15: 56.5 a.u.
2'F-ANA at 1 2 3 5 9 14: 126 a.u.
2'F-ANA at 2 4 8 12 14 15: 154 a.u.
2'F-ANA at 2 3 7 8 10 11 12 13 14 15: 263 a.u.
2'F-ANA at 2 3 4 5 6 8 9 10 12 15: 60.7 a.u.
2'F-ANA at 1 2 4 6 7 8 12: 372 a.u.
2'F-ANA at 2 3 4 5 6 7 11 12 14 15: 53.9 a.u.
2'F-ANA at 1 2 3 9 10 11: 62.1 a.u.
2'F-ANA at 1 2 3 4 6 11 14: 55.3 a.u.
2'F-ANA at 1 6 7 8 9 10 12 13 14 15: 48.8 a.u.
2'F-ANA at 2 4 8 10 13 14: 60.2 a.u.
2'F-ANA at 1 2 3 4 6 7 8 10 11 14 15: 51.8 a.u.
2'F-ANA at 2 3 4 7 8 9 12 13: 703 a.u.
2'F-ANA at 2 4 5 6 7 14 15: 116 a.u.
2'F-ANA at 4 6 7 10 12 15: 102 a.u.
2'F-ANA at 2 3 5 7 8 10 11 13 14: 52.1 a.u.

Single results of other studies
PhoQ, residues 284 288 289 292 302 303 TVTVVA
fold induction (PhoP, residues 12 14 15 18 19 LWHSL (Escherichia coli, UniProt P23836); Sort-seq, measured: YFP reporter; E. coli; PhoQ-PhoP variant library, with: 10 µM Mg2+; relative to: high Mg2+ state, higher = stronger signaling): 4.96 and 8.37

For quick reference, copied from above (block 2):
K5D: -0.157
D12T: 0.015
M2S: 0.116
